# Measurements of several laboratories.
# Lines come from different studies, so protocols differ.
# CHUK: Inhibitor of nuclear factor kappa-B kinase subunit alpha (CHUK, Homo sapiens, UniProt O15111)
# Sequence of UniProt O15111 (whole entry, looked up): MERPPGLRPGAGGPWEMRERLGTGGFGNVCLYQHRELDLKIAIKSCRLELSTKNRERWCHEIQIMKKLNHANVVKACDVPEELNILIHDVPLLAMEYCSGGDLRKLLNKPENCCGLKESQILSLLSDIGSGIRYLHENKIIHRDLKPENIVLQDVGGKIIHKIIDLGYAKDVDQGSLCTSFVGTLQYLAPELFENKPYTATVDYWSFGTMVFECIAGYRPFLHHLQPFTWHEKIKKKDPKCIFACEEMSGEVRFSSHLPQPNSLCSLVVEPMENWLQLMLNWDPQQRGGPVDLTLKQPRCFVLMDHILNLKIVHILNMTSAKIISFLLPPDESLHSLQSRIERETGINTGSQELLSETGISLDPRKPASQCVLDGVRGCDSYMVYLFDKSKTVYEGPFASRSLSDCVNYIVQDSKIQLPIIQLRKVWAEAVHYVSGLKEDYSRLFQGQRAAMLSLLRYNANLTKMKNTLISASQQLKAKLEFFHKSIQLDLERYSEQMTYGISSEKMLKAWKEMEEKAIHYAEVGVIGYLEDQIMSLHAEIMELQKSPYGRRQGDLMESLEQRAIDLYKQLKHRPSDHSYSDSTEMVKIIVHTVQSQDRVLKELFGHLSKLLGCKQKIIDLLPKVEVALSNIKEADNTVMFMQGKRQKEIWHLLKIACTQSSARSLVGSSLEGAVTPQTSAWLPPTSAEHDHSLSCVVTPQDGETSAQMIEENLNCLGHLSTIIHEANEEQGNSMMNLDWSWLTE
# Sequence of UniProt Q15835 (whole entry, looked up): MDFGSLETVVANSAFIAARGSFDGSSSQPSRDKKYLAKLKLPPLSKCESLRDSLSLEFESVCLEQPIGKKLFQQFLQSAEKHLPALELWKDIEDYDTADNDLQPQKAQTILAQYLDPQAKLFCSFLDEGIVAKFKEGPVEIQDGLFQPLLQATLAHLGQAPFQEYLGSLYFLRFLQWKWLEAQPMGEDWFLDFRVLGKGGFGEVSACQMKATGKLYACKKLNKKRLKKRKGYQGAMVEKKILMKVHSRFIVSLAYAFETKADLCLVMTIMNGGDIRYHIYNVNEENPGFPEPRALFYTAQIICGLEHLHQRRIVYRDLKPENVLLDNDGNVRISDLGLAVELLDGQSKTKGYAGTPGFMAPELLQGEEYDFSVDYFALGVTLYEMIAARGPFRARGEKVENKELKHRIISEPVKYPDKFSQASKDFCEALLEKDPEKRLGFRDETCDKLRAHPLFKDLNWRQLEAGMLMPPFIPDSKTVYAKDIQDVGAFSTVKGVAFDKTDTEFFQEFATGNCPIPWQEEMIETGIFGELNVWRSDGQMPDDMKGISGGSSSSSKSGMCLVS
# Sequence of UniProt O14976 (whole entry, looked up): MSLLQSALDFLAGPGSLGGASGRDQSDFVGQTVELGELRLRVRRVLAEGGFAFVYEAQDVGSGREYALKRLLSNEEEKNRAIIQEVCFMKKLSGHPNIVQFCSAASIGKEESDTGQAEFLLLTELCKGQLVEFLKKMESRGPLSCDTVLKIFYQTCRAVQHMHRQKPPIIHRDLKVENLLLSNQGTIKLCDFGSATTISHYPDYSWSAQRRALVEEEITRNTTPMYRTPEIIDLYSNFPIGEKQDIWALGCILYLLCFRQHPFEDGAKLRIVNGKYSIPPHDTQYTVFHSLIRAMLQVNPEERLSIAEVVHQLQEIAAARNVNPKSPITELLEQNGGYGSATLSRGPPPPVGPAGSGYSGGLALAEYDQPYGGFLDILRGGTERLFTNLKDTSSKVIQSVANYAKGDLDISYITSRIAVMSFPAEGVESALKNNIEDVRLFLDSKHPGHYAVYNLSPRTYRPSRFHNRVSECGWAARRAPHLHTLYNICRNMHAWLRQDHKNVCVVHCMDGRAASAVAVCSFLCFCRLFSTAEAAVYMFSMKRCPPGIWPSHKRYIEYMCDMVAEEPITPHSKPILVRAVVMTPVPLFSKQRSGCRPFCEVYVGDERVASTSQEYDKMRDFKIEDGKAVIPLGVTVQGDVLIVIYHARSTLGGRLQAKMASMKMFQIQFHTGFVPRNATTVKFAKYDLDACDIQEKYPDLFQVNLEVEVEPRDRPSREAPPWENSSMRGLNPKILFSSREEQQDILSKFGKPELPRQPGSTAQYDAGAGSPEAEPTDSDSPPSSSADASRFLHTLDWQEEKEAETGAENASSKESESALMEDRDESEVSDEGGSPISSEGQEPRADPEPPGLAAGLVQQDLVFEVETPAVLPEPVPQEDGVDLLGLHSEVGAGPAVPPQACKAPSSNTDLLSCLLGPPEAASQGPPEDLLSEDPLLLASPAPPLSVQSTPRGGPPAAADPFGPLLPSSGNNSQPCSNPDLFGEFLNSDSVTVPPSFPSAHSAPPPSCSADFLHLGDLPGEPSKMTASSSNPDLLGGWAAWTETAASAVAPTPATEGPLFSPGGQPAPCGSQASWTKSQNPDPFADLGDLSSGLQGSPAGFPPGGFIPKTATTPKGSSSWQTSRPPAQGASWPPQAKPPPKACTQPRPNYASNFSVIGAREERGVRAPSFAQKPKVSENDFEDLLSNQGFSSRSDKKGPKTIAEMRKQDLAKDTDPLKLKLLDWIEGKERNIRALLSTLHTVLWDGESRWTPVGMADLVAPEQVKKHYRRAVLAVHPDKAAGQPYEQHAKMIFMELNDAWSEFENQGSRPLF
Compound,target or system,effect on,technique,tested at,time,measurement,result
C=C(C)[C@]12C[C@@H](C)[C@@]34O[C@](CCCCCCCCCCC)(O[C@@H]1[C@@H]3[C@@H]1O[C@]1(CO)[C@@H](O)[C@]1(O)C(=O)C(C)=C[C@H]14)O2,MT4,cell growth or viability,,,,CC50,5.17 µM
COc1ccc2cc1Oc1ccc(cc1)C[C@H]1c3cc(c(OC)cc3CCN1C)Oc1c(O)c(OC)cc3c1[C@H](C2)N(C)CC3,MDCK,cell growth or viability,CCK-8,,48 h,CC50,47.7 µM
CC(C)(C)[C@H](NC(=O)C(F)(F)F)C(=O)N1C[C@H]2[C@@H]([C@H]1C(=O)N[C@H](C#N)C[C@@H]1CCNC1=O)C2(C)C,Caco-2,cell growth or viability,,,,CC50,> 100 µM
C#CC[C@H](NC(=O)/C=C/c1ccccc1)C(=O)N[C@H](C=O)C[C@@H]1CCCNC1=O,A549,cell growth or viability,MTT,,24 h,CC50,> 100 µM
COc1ncccc1-c1cnn2ccc(N3CCN(C(=O)OC(C)C)CC3)nc12,CHUK,binding,competition with immobilised ligand,1 µM,,remaining binding,67%
O=C[C@H](C[C@@H]1CCCNC1=O)NC(=O)[C@H](CC1CC1)NC(=O)/C=C/c1ccccc1,A549,cell growth or viability,MTT,,24 h,CC50,> 100 µM
CCOC(=O)C1=C(CN2CCCC2C(=O)Nc2cccc(B3OC(C)(C)C(C)(C)O3)c2)NC(c2nccs2)=NC1c1ccc(F)cc1Br (stereo not shown),HepDES19,cell growth or viability,MTS,,72 h,CC50,29.5 µM
COc1ccc2cc1Oc1ccc(cc1)C[C@H]1c3c(cc4c(c3Oc3cc5c(cc3OC)CCN(C)[C@@H]5C2)OCO4)CCN1C,A549,cell growth or viability,CCK-8,,48 h,CC50,49.6 µM
Nc1ncc(-c2nc(N3CCOCC3)nc(N3CCOCC3)n2)c(C(F)F)n1,CHUK,binding,competition with immobilised ligand,10 µM,,remaining binding,39%
C#Cc1cccc(Nc2ncnc3cc(OCCOC)c(OCCOC)cc23)c1,Calu-3,cell growth or viability,resazurin,,,CC50,> 60 µM
CC(C)C[C@H](NC(=O)[C@@H](NC(=O)/C=C/c1ccc(N(C)C)cc1)C(C)C)C(=O)N[C@H](C=O)C[C@@H]1CCCNC1=O,A549,cell growth or viability,MTT,,24 h,CC50,> 100 µM
Cc1nn(C)cc1-c1nc2c(N3CCN(Cc4ccc(Cl)cc4)CC3)c(Cl)cnc2[nH]1,"Cyclin-G-associated kinase (GAK, Homo sapiens, UniProt O14976)",binding,competition with immobilised ligand,1 µM,,remaining binding,94%
[2H]c1c([2H])c([C@]2([2H])CCCN2C(=O)C(C)(C)Oc2ccc3cn[nH]c3c2)c([2H])c([2H])c1C([2H])([2H])[2H],"Rhodopsin kinase GRK1 (GRK1, Homo sapiens, UniProt Q15835)",binding,competition with immobilised ligand,1 µM,,remaining binding,76%
CCOC(=O)C1=C(CN2CCC[C@@H]2C(=O)Nc2ccc(B(O)O)cc2)NC(c2nccs2)=N[C@H]1c1ccc(F)cc1Br,HepDES19,cell growth or viability,MTS,,72 h,CC50,32 µM
CCC(C)C(NC(=O)C1N2C(=O)c3ccccc3C2SC1(C)C)C(=O)NC(CO)C(C)C (stereo not shown),Calu-3,cell growth or viability,MTT,,48 h,CC50,> 250 µM
CCOC(=O)C1=C(CN2CCC[C@H]2C(=O)Nc2cccc(B(O)O)c2)NC(c2nccs2)=N[C@@H]1c1ccc(F)cc1Br,HepDES19,cell growth or viability,MTS,,72 h,CC50,33.7 µM
CC(C)C[C@H](NC(=O)[C@@H](NC(=O)C1CCOCC1)C(C)C)C(=O)N[C@H](C=O)C[C@@H]1CCCNC1=O,A549,cell growth or viability,MTT,,24 h,CC50,> 100 µM
C[N+]1=C2C=C(N/C=C/c3ccc(O)cc3)C(=O)c3[nH]cc(c32)CC1,HepG2,cell growth or viability,MTT,,72 h,CC50,5 µM
CCOC(=O)C1=C(CN2CCC(C(=O)Nc3ccccc3B(O)O)C2)NC(c2nccs2)=NC1c1ccc(F)cc1Br (stereo not shown),HepDES19,cell growth or viability,MTS,,72 h,CC50,> 50 µM

# Repeated from above:
Compound,target or system,effect on,technique,tested at,time,measurement,result
CC(C)(C)[C@H](NC(=O)C(F)(F)F)C(=O)N1C[C@H]2[C@@H]([C@H]1C(=O)N[C@H](C#N)C[C@@H]1CCNC1=O)C2(C)C,Caco-2,cell growth or viability,,,,CC50,> 100 µM
C#CC[C@H](NC(=O)/C=C/c1ccccc1)C(=O)N[C@H](C=O)C[C@@H]1CCCNC1=O,A549,cell growth or viability,MTT,,24 h,CC50,> 100 µM
COc1ncccc1-c1cnn2ccc(N3CCN(C(=O)OC(C)C)CC3)nc12,CHUK,binding,competition with immobilised ligand,1 µM,,remaining binding,67%
